# Measurements of several laboratories.
# Numbered parts are unrelated; each lists some results of a single study.

# Sample 1
# Target: PABPC1L2, full length, GST fusion (mouse, UniProt A0ABA7IW68)
# Technique: RNAcompete
# Form: RNA
# Medium: in vitro
# Concentration: 20 nM
# Setting: 7-mer, probes averaged, single round
# Reference: mean of 7-mers
# Direction: higher = stronger binding
# Target sequence (chain): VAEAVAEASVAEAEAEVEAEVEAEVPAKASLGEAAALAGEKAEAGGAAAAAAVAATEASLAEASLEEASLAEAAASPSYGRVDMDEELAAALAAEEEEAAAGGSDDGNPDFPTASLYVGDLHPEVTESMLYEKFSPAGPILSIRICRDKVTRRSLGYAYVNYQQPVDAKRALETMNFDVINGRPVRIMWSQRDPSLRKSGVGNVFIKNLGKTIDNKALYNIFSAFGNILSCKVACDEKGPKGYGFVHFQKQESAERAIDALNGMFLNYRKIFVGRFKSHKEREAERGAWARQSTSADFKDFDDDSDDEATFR
Sequence,7-mer Z-score
AGAGGGC,0.253
UCCGACU,-0.298
AGAGAGA,0.104
GGCUAUG,0.0152

# Sample 2
# Target: Histone acetyltransferase KAT6A, both winged helices, GST fusion (KAT6A, Homo sapiens, UniProt Q92794, residues 1-181)
# Technique: protein binding microarray
# Form: double-stranded DNA, one strand shown
# Medium: in vitro
# Concentration: not given
# Setting: 8-mer, flanks averaged, mean of 2 arrays, mostly near background
# Reference: not given
# Direction: higher = stronger binding
# Residues (chain): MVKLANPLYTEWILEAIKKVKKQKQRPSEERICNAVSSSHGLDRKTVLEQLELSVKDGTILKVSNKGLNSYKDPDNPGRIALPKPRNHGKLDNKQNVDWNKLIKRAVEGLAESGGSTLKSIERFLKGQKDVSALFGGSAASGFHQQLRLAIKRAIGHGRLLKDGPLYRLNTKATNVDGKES
Sequence,E-score
ACCTCGCT,0.0515
TCCTAACA,-0.143
AATACTAA,-0.0419
ATCCATGG,-0.101
ACGACTCT,-0.189
AAAAGATT,-0.0333
TATAATAA,0.0396
TCAAGGCA,-0.349

# Sample 3
# Target: Replicase polyprotein 1ab, main protease (rep, Severe acute respiratory syndrome coronavirus 2, UniProt P0DTD1)
# Observed: enzyme activity
# Action: inhibitor
# Concentration: 20 µM
# Setting: hit confirmation, no DTT
Compound,inhibition [%]
O=[N+]([O-])C(Br)(CO)CO,100
O=C1OC2(c3cc(I)c(O)c(I)c3Oc3c2cc(I)c(O)c3I)c2c(Cl)c(Cl)c(Cl)c(Cl)c21,86.4
C[C@H]1COC2=C1C(=O)C(=O)c1c2ccc2c1CCCC2(C)C,92.3
CC(=O)[O][Pt]([NH2])([Cl])([Cl])([NH]C1CCCCC1)[O]C(C)=O,95.9

# Sample 4
# Cell line: HEK-293T
# Observed: pseudovirus infection
# Organism: VSV pseudotyped with SARS-CoV-2 spike
# Concentration: 10 µM
# Time: 16 h
# Reference: vehicle-treated
SMILES,GFP-positive cells [%]
CCOC(=O)C1=C[C@@H](OC(CC)CC)[C@H](NC(C)=O)[C@@H](N)C1,99.5
C[C@@H](c1ncncc1F)[C@](O)(Cn1cncn1)c1ccc(F)cc1F,78.2
C[C@]1(O)CC[C@H]2[C@@H]3CCC4=CC(=O)CC[C@]4(C)[C@@]3(F)[C@@H](O)C[C@@]21C,81.7
CC(=O)OCC(CCn1cnc2cnc(N)nc21)COC(C)=O,96.5
CC(=O)/N=c1/sc(S(N)(=O)=O)nn1C,104

# Sample 5
# Target: RING finger protein unkempt homolog, zinc fingers 1-6, GST-SBP tag (UNK, Homo sapiens, UniProt Q9C0B0, residues 30-357)
# Technique: RNA Bind-n-Seq
# Form: RNA
# Medium: in vitro
# Concentration: not given
# Setting: RNA with constant flanks, human and mouse sites, ends assumed
# Reference: input RNA pool
# Direction: higher = stronger binding
# Construct (chain): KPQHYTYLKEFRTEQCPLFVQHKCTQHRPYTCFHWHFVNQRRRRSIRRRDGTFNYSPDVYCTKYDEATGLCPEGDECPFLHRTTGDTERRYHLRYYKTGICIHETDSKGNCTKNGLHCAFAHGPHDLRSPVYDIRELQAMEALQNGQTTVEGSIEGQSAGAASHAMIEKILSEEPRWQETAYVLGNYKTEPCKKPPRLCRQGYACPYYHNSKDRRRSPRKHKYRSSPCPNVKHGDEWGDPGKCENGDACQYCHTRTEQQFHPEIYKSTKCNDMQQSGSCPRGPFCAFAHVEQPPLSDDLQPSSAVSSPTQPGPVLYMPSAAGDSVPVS
Sequence,bound/input enrichment [ratio]
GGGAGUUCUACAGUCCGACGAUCGUUAUUUUAAUAAUUCCUUUAAAUUUUAUCUGUUGCUGUUACCUCUUGAAAUAUGAUUUAUUUAGAUUGCUAAUCCCACUCAUUCAGGAAAUGCCAAGAGGUUUUCUGUGGGGGAAAUGGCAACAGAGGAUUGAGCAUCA,4.5
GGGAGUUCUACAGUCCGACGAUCUUGGCCAGUCAGUAUUCUGCUAAUGAAAUGUAUGCAGAAGCACUGAACACAUACCAAGUUAUAGUGAAAAACAAGAUGUUUAGCAAUGCAGGAAGACUGAAAGUGAAUAUGGGAAAUAUUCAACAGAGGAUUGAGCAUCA,0.624
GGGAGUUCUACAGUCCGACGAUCAAGACACUGACCCGGAACCACCUGUACUGUGAGCCCCCUGUGGAGCAGCCCCUGCCACAUCCCCAUGCCCUCCGAGAGGCUCCAGAUGCUUUGCCUGAGUUCACGGUACAGAUGGGCAACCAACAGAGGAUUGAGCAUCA,0.199
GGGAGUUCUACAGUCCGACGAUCGCUUCUUCUGCCAGUGCUGAAUUCUUCGCUGACAUUGCCCUGGCUCCUAUGGAAGCUGCUAAAGUUCGAAUUCAAACCCAGCCUGGUUAUGCCAACACCUUGAGGGAAGCUGUUCCCAAACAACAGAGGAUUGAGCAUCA,0.0722
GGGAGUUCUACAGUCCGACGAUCGACUUGGACCUUCCUGGGCUAGUGCAAAUAGCGGCAGUGGAGGCUCAAGAGGAAAGUUUGUUAGUGGAGGCAGUGGUAGAGGUCGUCAUGUACGCUCCUUUACACGAUAAAAAUCCUUUUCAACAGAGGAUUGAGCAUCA,0.125
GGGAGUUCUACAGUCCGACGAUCGAAGUAGAUUCCAAAGCAGCUUUAAUACCGGAUUGGUUACAAGAUAGACCAUCAAACAGAGAAAUGCCAUCUGAAGAAGGAACAUUAAAUGGUCUCACUUCUCCAUUUAAGCCAGCUAUGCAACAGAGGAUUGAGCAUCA,0.378
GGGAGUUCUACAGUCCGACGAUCGAAAAUGAGCAAGAGCGGCAAUCGGACACUGAGGACGGCUCCAGCAAGAGAGAGACGCAGACGGAUUCUGUUUCCAGGUAUGACAGCAGUUCCACAUCAUCAAGUGAUCGGUAUGAUUCCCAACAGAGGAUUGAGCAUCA,0.303
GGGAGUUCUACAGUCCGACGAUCCAGUACAUUUCUCCAUUUCAUGAUGUUCCAAUUUAUGCAGACAAGGAUGUGUUCCACAUGGUGGUUGAGGUUCCACGCUGGUCCAACGCCAAAAUGGAGAUUGCUACAAAGGACCCUUUACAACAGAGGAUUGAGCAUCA,0.166

# Sample 6
# Target: Replicase polyprotein 1ab, polymerase (rep, Severe acute respiratory syndrome coronavirus 2, UniProt P0DTD1)
# Observed: enzyme activity
# Action: inhibitor
# Concentration: 20 µM
Structure (SMILES),inhibition [%]
CCCN(CCC)C1CCc2ccc(O)cc2C1 (stereo not drawn),-5.17
CCCCC1OC(=O)c2ccccc21 (stereo not drawn),-12.6
Clc1ccc2c(c1)N=C(N1CCNCC1)c1ccccc1N2,1.61
N=C(N)NCCC[C@H](N)C(=O)O,-4.35
C[C@@H]([C@@H](O)c1ccc(O)cc1)N1CCC(O)(c2ccccc2)CC1,2.56
CCOc1ccccc1OCCN[C@H](C)Cc1ccc(OC)c(S(N)(=O)=O)c1,-1.9
O=C(O)CCCCCCCCCCCCCCc1ccc(I)cc1,-3.52
O=C(O)c1ccc(-c2ccc3cc(O)c(C45CC6CC(CC(C6)C4)C5)cc3c2)cc1,5.73
Cc1ncc([N+](=O)[O-])n1CC(O)CCl (stereo not drawn),-6.46
CN1CC[C@@]2(C)c3cc(O)ccc3N(C)[C@@H]12,-2.51
N#C/C(=C\c1ccc(O)c(O)c1)C(=O)NCCCCc1ccccc1,111
Clc1ccc(C(Cn2ccnc2)OCc2c(Cl)cccc2Cl)c(Cl)c1 (stereo not drawn),-21.5
COc1cc(N)c(Cl)cc1C(=O)CCC1CCN(CCNS(C)(=O)=O)CC1,-0.88
O=C(NC1CCNCC1)[C@@H]1CC[C@@H]2CN1C(=O)N2OS(=O)(=O)O,-4.04
CC(C)(C)c1cc(/C=C(\C#N)C(N)=S)cc(C(C)(C)C)c1O,3.78
O=C1NCCN1c1ncc([N+](=O)[O-])s1,-6.24
N#CC(C#N)=Cc1ccc(O)c(O)c1,31.3
O=c1ccn([C@@H]2O[C@H](COP(=O)(O)OP(=O)(O)OP(=O)(O)O)[C@@H](O)[C@H]2O)c(=O)[nH]1,-8.02
S=C(S)N1CCCC1,2.25
O=C(C[S+]([O-])Cc1ccco1)NC/C=C\COc1cc(CN2CCCCC2)ccn1 (stereo not drawn),0.14
COc1cc(-c2ncn(/C=C\C(=O)OC(C)C)n2)cc(C(F)(F)F)c1,2.95
O=C(Oc1ccc([N+](=O)[O-])cc1)N1CCC(C(O)(c2ccc3c(c2)OCO3)c2ccc3c(c2)OCO3)CC1,-0.82
C[N+](C)(C)CCOP(=O)(O)OP(=O)([O-])OC[C@H]1O[C@@H](n2ccc(N)nc2=O)[C@H](O)[C@@H]1O,13.1
CC1CC(OC(=O)C(O)c2ccccc2)CC(C)(C)N1C (stereo not drawn),-2.54
CCCCC(CC)CNC(=N)NC(=N)NCCCCCCNC(=N)NC(=N)NCC(CC)CCCC (stereo not drawn),14.6

# A few entries again (sample 6):
Structure (SMILES),inhibition [%]
O=c1ccn([C@@H]2O[C@H](COP(=O)(O)OP(=O)(O)OP(=O)(O)O)[C@@H](O)[C@H]2O)c(=O)[nH]1,-8.02
CCCCC(CC)CNC(=N)NC(=N)NCCCCCCNC(=N)NC(=N)NCC(CC)CCCC (stereo not drawn),14.6
CC1CC(OC(=O)C(O)c2ccccc2)CC(C)(C)N1C (stereo not drawn),-2.54
Clc1ccc(C(Cn2ccnc2)OCc2c(Cl)cccc2Cl)c(Cl)c1 (stereo not drawn),-21.5
O=C(Oc1ccc([N+](=O)[O-])cc1)N1CCC(C(O)(c2ccc3c(c2)OCO3)c2ccc3c(c2)OCO3)CC1,-0.82
